Assay results gathered from unrelated publications.
Numbered parts are unrelated; each lists some results of a single study.

Series 1
Target: Ras GTPase-activating protein-binding protein 1, RRM domain (G3BP1, Homo sapiens, UniProt Q13283)
Chain of UniProt Q13283 (whole entry, looked up): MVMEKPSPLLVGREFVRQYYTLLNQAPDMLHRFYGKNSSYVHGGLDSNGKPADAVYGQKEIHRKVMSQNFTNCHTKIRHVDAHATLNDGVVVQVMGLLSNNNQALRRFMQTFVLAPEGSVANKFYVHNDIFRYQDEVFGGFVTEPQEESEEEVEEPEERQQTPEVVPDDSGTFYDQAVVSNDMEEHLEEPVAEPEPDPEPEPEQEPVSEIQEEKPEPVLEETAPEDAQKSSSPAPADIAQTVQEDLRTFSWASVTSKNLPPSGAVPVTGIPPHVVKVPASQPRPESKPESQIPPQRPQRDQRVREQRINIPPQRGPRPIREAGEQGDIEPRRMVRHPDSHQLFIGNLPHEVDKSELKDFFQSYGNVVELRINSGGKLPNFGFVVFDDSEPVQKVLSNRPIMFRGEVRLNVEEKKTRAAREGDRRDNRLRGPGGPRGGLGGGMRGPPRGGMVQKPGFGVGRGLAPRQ
Method: RNA Bind-n-Seq
Molecule type: RNA
Medium: in vitro
Concentration: 1 µM
Notes: whole 134-nt RNA, ends assumed
With: 150 mM KCl
Relative to: input library
Direction: higher = stronger binding
All sequences stand within: GGGAGUUCUACAGUCCGACGAUC … UGGAAUUCUCGGGUGUCAAGG
Oligonucleotide	log2 enrichment
CAAGUCCUGUGCUACACAUCGUAUGUACCGAAUCGGGGCCCGGCCCGGCCCGGGGAAAGUAUUAUGUUACGCCGUUCGGAUCUGCACUUC	-0.993
GGGUCUGUUGCAAAUAAAUUCUAUGUUCACAAUGAUAUCUUCAGAUACCAAGAUGAGGUCUUUGGUGGGUUUGUCACUGAGCCUCAGGAG	-0.24
CCUCAAGUCCUGUGCUACACAUCGUAUGUACCGAAUCGGUGGGUGGGGUGGGAAAGUAUUAUGUUACGCCGUUCGGAUCUGCACUUCCAG	0.204
GCAGGAAGUAAAAACAAAUGGAAAUGCUUCGGAUAGUGGCAGGGGUGGGGGUUGCUAAGGACAGGGUGGGAUGGGAGUGGGUAAAGAGUU	0.795
GUCCUGUGCUACACAUCGUAUGUACCGAAUCGGGGUUUUUUUGGGGUGGGGAAAGGGGAAAGUAUUAUGUUACGCCGUUCGGAUCUGCAC	1.21
UCCUCAAGUCCUGUGCUACACAUCGUAUGUACCGAAUCGGCGGGGCGGCGGGAAAGUAUUAUGUUACGCCGUUCGGAUCUGCACUUCCAG	-0.136
AAGUCCUGUGCUACACAUCGUAUGUACCGAAUCGGGAGGGAAAAAAAGGGUUUGGGAAAGUAUUAUGUUACGCCGUUCGGAUCUGCACUU	0.656
UAACUUUAGAGGAGGAUCUGAUGGAUAUGGCAGCGGACGUGGAUUUGGGGAUGGCUAUAAUGGGUAUGGAGGAGGACCUGGAGGUGGCAA	-0.899
CUCAAGUCCUGUGCUACACAUCGUAUGUACCGAAUCGGAAAAAGGUUUGGAGGAAAGUAUUAUGUUACGCCGUUCGGAUCUGCACUUCCA	-0.217
AGUCCUGUGCUACACAUCGUAUGUACCGAAUCGGAAAAAAAGGUUUUUGGUUUUUGGAAAGUAUUAUGUUACGCCGUUCGGAUCUGCACU	-0.33
UAACAUUAGAGGAGGAUCUGAUGGAUAUGGCAGUGGACGUGGAUUUGGGGAUGGCUAUAAUGGGUAUGGAGGAGGACCUGGAGGUGGCAA	-0.377
AAGUCCUGUGCUACACAUCGUAUGUACCGAAUCGGCCCCGGGCCCCGGGCCCCGGGGAAAGUAUUAUGUUACGCCGUUCGGAUCUGCACU	-0.779
UCCUGUGCUACACAUCGUAUGUACCGAAUCGGGAAAAAGGGAAAAAGGGUUUUUUUGGGAAAGUAUUAUGUUACGCCGUUCGGAUCUGCA	0.017
AGUCCUGUGCUACACAUCGUAUGUACCGAAUCGGUUUUGGGUUUUGGGGUUUUGGGGAAAGUAUUAUGUUACGCCGUUCGGAUCUGCACU	-0.153

Series 2
Target: RNA binding protein fox-1 homolog 2, RRM domain, GST-SBP tag (RBFOX2, Homo sapiens, UniProt O43251-10, residues 100-194)
Method: RNA Bind-n-Seq
Molecule type: RNA
Medium: in vitro
Concentration: 365 nM
Notes: natural RNA segment, single round, ends assumed
Relative to: no-protein control
Direction: higher = stronger binding
All sequences stand within: GGGAGUUCUACAGUCCGACGAUC … UGGAAUUCUCGGGUGCCAA
Residues (chain): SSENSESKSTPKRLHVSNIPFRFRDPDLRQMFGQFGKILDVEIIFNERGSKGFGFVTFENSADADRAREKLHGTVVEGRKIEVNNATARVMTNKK
Oligonucleotide	RBNS enrichment (R)
AGUUAUCACUUUUGGGUGUCUGUAUCCUAAGAAGUUUCUGAAAAGAUCUAAAGCCUUUUUAUCCCAUAUCCCAAAUUCUUAUGAGCCACUCACAGCAGGCAGCAUAUGUU	0.375
CAGCACUCUAAUGCACAGCUGCUGACAAUAAAAGCCCCAACUCUUAACGGAGAUCAGUGGGAGUUACAGGCAUCUCAGUUAUCAAGGAAUUGAACUCCUUGAGAGAUAGU	0.541
UUUGGAAGAGAGUUUUUCAUCUUAGAGAUUGGUGAACAAGUGUGAGGGUGUGAGAAACUCACAGAAUACAAAUUUGCCUGUAUGUUUUGUGGGUUUUUUUUUUUCCUUUC	1.15
AACCCUCGUGCAGCUGAGCUGGGGCCGCCAAAGACCGGGGCUGCCAAAGGGGCAGAGGGUGGUGGAGAGGAGAGGGAGAAAGGGAAGUCCCAGGGCCCGGGGUCCACAGA	1.3
UGGCUGAAACUGCCACCAACUGCCACGAUGAACCCAACUGCUGUUUAUGCCCCCAUUUUCCUUUUUUUGUAUCUACACCCACACGAUUCCCAAUGUUGGAUAUUUCUACA	1.28
UGGGAUUACAAUGAAUGUAAGCCCAAAUUGUGGAAUUGCCAGUAACCUGGAUGGGGAAAAGCAUUUCCCAUAGCACUCCAUGUAAUAUGAGUGCUCUGUGAGAUGUUCAU	0.274
UAUUAACCUGCAAAUGGACUGUCAGCACCAGGUGGUGUCUUCUAACUCUGGUCCUUACAUCACAGAGAAAAGCCACCUUGCCCGUUUUUCCUCCAUUCUGUGAACUUCCC	0.544
UUUUUUCUCUUUUCCUUGAUGGACCAACAGUGCAAAUGCAAUCUCGCCAUUUAACUUUCAGGUCGAUUUCCUUUCCUGAUCAGACAUCUUUGUGCCCCCUUUAGGAAGGA	0.327
AGCAAUUUUGGGGAAGGGUUUGAAUUGUUUUCUUUAAAGAUGUAAUGUCCCUUUCAGAGACAGCUGAUACUUCAUUUAAAAAAAUCACAAAAAUUUGAACACUGGCUAAA	0.381
GGAAUAGUGCAACACCCGAGGCCCCAGUCCUGCACCGAGGCUGACCCCAGACCUGCACUGCCUUUGAGCUGGGUCCUAAUUGCACAUGGCUUGUGACGAAUGAAUCUUGC	3.08
GGCUGUGGGCUAUCUGGGUACAAUGAUUUAGCCGUGGCUGUGGGCUAUCUGGGUGCAAUGAUUUAGCCGUGGCUGUGGGCUAUCUUCCUGUUAGCCUUGGACUGAAGGGG	1.07
AUGAUGUUGGGUUUAACAUCAUAUGUUCACAGUGUUUUAAAUAAGAAAUAAUCUGUCUUUAGUAUACAGAAUGGUUCUUUGUUUGCCUGAAAAGUAUAAGAAUACAAUUU	0.756

Series 3
Target: Sal-like protein 4, full length isoform A (SALL4, Homo sapiens, UniProt Q9UJQ4, residues 1-1053)
Chain of UniProt Q9UJQ4 (whole entry, looked up): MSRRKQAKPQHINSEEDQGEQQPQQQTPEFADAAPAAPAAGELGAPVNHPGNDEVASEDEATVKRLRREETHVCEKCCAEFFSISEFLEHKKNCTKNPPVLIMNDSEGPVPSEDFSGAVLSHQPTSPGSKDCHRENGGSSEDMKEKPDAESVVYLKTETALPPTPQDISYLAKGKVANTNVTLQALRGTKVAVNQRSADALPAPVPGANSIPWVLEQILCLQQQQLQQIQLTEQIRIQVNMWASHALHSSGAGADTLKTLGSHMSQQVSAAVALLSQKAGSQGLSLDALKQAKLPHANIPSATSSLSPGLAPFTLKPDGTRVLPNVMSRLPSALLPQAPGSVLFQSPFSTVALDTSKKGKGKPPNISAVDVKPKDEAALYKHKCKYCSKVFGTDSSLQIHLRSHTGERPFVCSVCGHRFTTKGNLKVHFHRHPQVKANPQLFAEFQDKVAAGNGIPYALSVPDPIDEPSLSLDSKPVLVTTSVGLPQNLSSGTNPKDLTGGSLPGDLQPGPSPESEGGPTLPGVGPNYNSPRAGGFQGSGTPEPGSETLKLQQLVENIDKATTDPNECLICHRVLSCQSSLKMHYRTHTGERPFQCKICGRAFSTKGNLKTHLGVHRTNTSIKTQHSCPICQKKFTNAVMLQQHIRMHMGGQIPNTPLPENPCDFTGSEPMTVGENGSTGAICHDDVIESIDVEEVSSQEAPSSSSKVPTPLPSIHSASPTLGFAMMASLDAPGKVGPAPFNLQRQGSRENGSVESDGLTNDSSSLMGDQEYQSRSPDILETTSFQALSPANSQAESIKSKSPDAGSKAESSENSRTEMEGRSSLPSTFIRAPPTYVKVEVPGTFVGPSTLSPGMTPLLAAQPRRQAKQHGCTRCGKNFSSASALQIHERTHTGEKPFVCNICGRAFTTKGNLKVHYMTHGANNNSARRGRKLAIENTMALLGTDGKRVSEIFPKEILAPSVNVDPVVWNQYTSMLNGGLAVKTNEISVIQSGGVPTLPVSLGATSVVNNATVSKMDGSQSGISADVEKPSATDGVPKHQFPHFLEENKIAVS
Method: universal PBM
Molecule type: double-stranded DNA, one strand shown
Medium: in vitro
Concentration: 600 nM
Notes: 8-mer, flanks averaged, mean of replicates
Direction: higher = stronger binding
Oligonucleotide	E-score
CCGGGAGC	-0.404
AGAGGTTA	0.224
CTAGGGGC	-0.273
ACGTTCGC	-0.171
CCTTCTCC	-0.216
GGCCTGTA	-0.214
ATGAGAGA	0.126
ATTGTTGA	0.228
CCAGGACA	-0.134
CAGTCAAG	-0.0723
AGGCTACG	-0.244
CCCGTGCA	-0.352
GAAGGGGA	-0.213
CAACGCCC	-0.223
CAGGACTC	-0.297
CGGTAAAG	-0.146
CAATGTCA	0.214
AAGAAAAC	0.105
CCGATCGC	-0.0673
CAGAGTAA	-0.00522
AAGGAACG	-0.0567
AGCCCGTC	-0.362
TCAAGGAA	0.0764
ACCCCGGC	-0.358
ATCAGTAC	0.147

Series 4
Target: Interferon regulatory factor 7, full length, phosphomimetic (IRF7, Homo sapiens, UniProt Q92985, residues 1-503, S101K/S471D/S472D/S475D/S476D/S477D/S483D/S484D/S487D)
Method: protein-binding microarray
Molecule type: double-stranded DNA, one strand shown
Medium: in vitro
Concentration: 250 nM
Notes: 60-bp whole probe
With: salmon DNA 0.4 mg/ml
Relative to: random background probes
Direction: higher = stronger binding
All sequences stand within: GCCTAGCAC … GTCTTGATTCGCTTGACGCTGCTG
Construct (chain): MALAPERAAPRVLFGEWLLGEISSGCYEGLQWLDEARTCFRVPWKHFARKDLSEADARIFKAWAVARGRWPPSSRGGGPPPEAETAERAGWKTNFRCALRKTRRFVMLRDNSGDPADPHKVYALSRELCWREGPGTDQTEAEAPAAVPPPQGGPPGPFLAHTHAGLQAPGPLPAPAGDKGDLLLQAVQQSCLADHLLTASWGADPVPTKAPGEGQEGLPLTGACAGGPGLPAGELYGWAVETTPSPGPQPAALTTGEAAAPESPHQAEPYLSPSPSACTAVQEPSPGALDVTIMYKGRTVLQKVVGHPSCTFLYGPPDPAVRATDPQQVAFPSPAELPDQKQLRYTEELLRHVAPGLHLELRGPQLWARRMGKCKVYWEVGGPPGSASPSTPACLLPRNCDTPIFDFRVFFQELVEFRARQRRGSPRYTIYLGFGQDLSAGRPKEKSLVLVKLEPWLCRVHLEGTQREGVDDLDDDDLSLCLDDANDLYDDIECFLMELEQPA
Oligonucleotide	log fluorescence [z-score]
GCCGGACTGGACACTGGGGACGTGCTA	-0.881
TTAGGTATCGGGTATCGGTCAGTGCTA	0.705
TCATTTTTTTTCTTTAAACTGTGCTAG	0.95
TCACCTCTCTGTCCCCCACTGTGCTAG	0.516
TATTGTTTCCTCTTTCACTGGTGCTAG	3.23
TCAATGTTCACTATTTAACTGTGCTAG	0.665
GCCGATATCAGTTTCGAGACGTGCTAG	3.92
GACGAACTGTGTATCGAGACGTGCTAG	-0.293
GACGGACTGGGGTATCGGGTCGTGCTA	-0.43
TTAGGAATCGGACTGGGTTAGTGCTAG	-0.0958
TTAGGACTGGGGTTTCGTTTAGTGCTA	5.23
CGGATGATCTCTCTGGGCAAGTGCTAG	-0.345
CTGATTTTGCTTTCATTTATGTGCTAG	0.991
GACGGTATCCTTCTCCCGACGTGCTAG	0.197
GACGGTCTCATACTGCTGACGTGCTAG	0.0296
GACGGACTGGACTTTCGGGCCGTGCTA	-0.828
GACGGTATCCTTAACCTGACGTGCTAG	0.328
GAAGGTTTCGACACTGGGGACGTGCTA	3.19
TTAGGTTTCGGGACTGGGTCAGTGCTA	3.72
TTACGACTGGGTATCGGTTAGTGCTAG	0.426
TCATCTTTCCTTACTTCACTGTGCTAG	1.9
TTAGGTCTCGTTCTCGGTTAGTGCTAG	2.92
TTGACTCTTTCTGTCAGTTTGTGCTAG	0.619
GACGATTTCTGTTCCGAGACGTGCTAG	1.16
TCAAGTCTGGGCTACAACTTGGTGCTA	-0.578

Some of these lines once more (series 2):
Oligonucleotide	RBNS enrichment (R)
GGAAUAGUGCAACACCCGAGGCCCCAGUCCUGCACCGAGGCUGACCCCAGACCUGCACUGCCUUUGAGCUGGGUCCUAAUUGCACAUGGCUUGUGACGAAUGAAUCUUGC	3.08
UAUUAACCUGCAAAUGGACUGUCAGCACCAGGUGGUGUCUUCUAACUCUGGUCCUUACAUCACAGAGAAAAGCCACCUUGCCCGUUUUUCCUCCAUUCUGUGAACUUCCC	0.544
AUGAUGUUGGGUUUAACAUCAUAUGUUCACAGUGUUUUAAAUAAGAAAUAAUCUGUCUUUAGUAUACAGAAUGGUUCUUUGUUUGCCUGAAAAGUAUAAGAAUACAAUUU	0.756
CAGCACUCUAAUGCACAGCUGCUGACAAUAAAAGCCCCAACUCUUAACGGAGAUCAGUGGGAGUUACAGGCAUCUCAGUUAUCAAGGAAUUGAACUCCUUGAGAGAUAGU	0.541
GGCUGUGGGCUAUCUGGGUACAAUGAUUUAGCCGUGGCUGUGGGCUAUCUGGGUGCAAUGAUUUAGCCGUGGCUGUGGGCUAUCUUCCUGUUAGCCUUGGACUGAAGGGG	1.07
UUUGGAAGAGAGUUUUUCAUCUUAGAGAUUGGUGAACAAGUGUGAGGGUGUGAGAAACUCACAGAAUACAAAUUUGCCUGUAUGUUUUGUGGGUUUUUUUUUUUCCUUUC	1.15
AACCCUCGUGCAGCUGAGCUGGGGCCGCCAAAGACCGGGGCUGCCAAAGGGGCAGAGGGUGGUGGAGAGGAGAGGGAGAAAGGGAAGUCCCAGGGCCCGGGGUCCACAGA	1.3
